Experimental data from different studies.
Compare with care: the assays were run in different laboratories. Numbers after ± are the reported error. Values after ≈ are worked out from the molar mass of the structure shown.

Structure (SMILES) | assay | system | setting | how to read | endpoint | result
CC(OS(=O)(=O)O)c1nc(-c2ccc3c(c2)CCC3NC(=O)c2cnn(C)c2)no1 (stereo not drawn) | – | human, pooled urine | oral, 20 mg | baseline: dose | radioactive dose excreted in urine | 1.14%
CC(C)[C@H](NC(=O)CNC(=O)[C@H](CCC(N)=O)NC(=O)[C@H](C)N)C(=O)O | LC-MS/MS | human, plasma | intravenous, 10 mg/kg three times daily, day 2, first dose, 10 min infusion, geometric mean | – | AUC(0-last) | 241 ng·h/mL
O=C(O)C1OC(OC2C(COS(=O)(=O)O)OC(OC3C(C(=O)O)OC(OC4C(COS(=O)(=O)O)OC(OC5C(C(=O)O)OC(OC6C(COS(=O)(=O)O)OC(OC7C(C(=O)O)OC(OC8C(COS(=O)(=O)O)OC(OC9C(C(=O)O)OC(OC%10C(COS(=O)(=O)O)OC(OC%11C(C(=O)O)OC(Oc%12ccc([N+](=O)[O-])cc%12)C(O)C%11O)C(NS(=O)(=O)O)C%10O)C(OS(=O)(=O)O)C9O)C(NS(=O)(=O)O)C8O)C(OS(=O)(=O)O)C7O)C(NS(=O)(=O)O)C6O)C(OS(=O)(=O)O)C5O)C(NS(=O)(=O)O)C4O)C(OS(=O)(=O)O)C3O)C(NS(=O)(=O)O)C2OS(=O)(=O)O)C(O)C(O)C1OC1OC(COS(=O)(=O)O)C(O)C(O)C1NS(=O)(=O)O (stereo not drawn) | – | rats, serum | intravenous, 3600 µg/kg/day for 7 days, day 8 | – | creatinine | 0.42 ± 0.03 mg/dL
CC(C)(Sc1ccncc1-c1ccc(C#N)c2ccccc12)C(=O)OC1OC(C(=O)O)C(O)C(O)C1O (stereo not drawn) | – | human, urine | oral, 15 mg, 72 h, mild renal impairment | – | renal clearance | 163 mL/min
CN(O)C(=O)CCC(=O)NCCCN(CCCCN(CCCNC(=O)CCC(=O)N(C)O)C(=O)CCC(=O)N(C)O)C(=O)CCC(=O)N(C)O.[89Zr] | – | mouse, pancreas | 4 h | – | tracer uptake | 0.02 %ID/g
CC(=O)N([O-])CCCCCNC(=O)CCC(=O)N([O-])CCCCCNC(=O)CCC(=O)N([O-])CCCCCN.[89Zr+4] | radio-iTLC | aqueous buffer | initial, pH 5.0, 37 °C, EDTA challenge, added: 100-fold excess EDTA | – | intact complex | 97 ± 0.2%
OC1(C(F)(F)F)CCN(c2nc(Nc3ccnc(C(F)(F)F)c3)nc(-c3cccc(C(F)(F)F)n3)n2)C1 (stereo not drawn) | – | Sprague-Dawley rat | oral, at least 100 mg/kg, 28 days, once daily | – | food intake | decreased
Oc1ccc2ccccc2c1/N=N/c1ccc(/N=N/c2ccccc2)cc1 | – | Sprague-Dawley rats both sexes, whole blood | oral, 50 mg/kg | – | elimination half-life | 2.39 h
COc1ccc2cc(-c3ccc(-c4ccc(C)cn4)nc3)oc2c1 | – | aqueous HEPES buffer | pH 7.4, added: quinine bisulfate reference | – | fluorescence quantum yield | 0.25
N=C(N)NCCC[C@H](NC(=O)CON=C[C@H](F)[C@@H](O)[C@H](O)[C@H](O)CO)C(=O)NCC(=O)N[C@@H](CC(=O)O)C(=O)O [fluorine-18 labelled] | – | nude mice, U-87 MG xenograft | intravenous, 2 h | baseline: tumour over liver | tissue ratio | 1.25 ± 0.08
NCC(=O)N1CCC[C@H]1C(=O)N1C[C@H](O)C[C@H]1C(=O)O | potentiometric titration | – | 25 °C, MAH-1 complex, added: Fe(III) | – | log beta | 13.6
CCCCCCCCC=CCCCCCCCC(=O)OC(COC(=O)Cc1c(C)n(C(=O)c2ccc(Cl)cc2)c2ccc(OC)cc12)COP(=O)([O-])OCC[N+](C)(C)C (stereo not drawn) | dialysis | ethanol/PBS | 10 h, pH 7.4, 37 °C | – | cumulative release | 91.8 ± 4.33%
COC(=O)/C=C/C(=O)c1ccc(OC)cc1 | LC-MS/MS | rat plasma | 2.5 ng/mL, time not given, 3 freeze-thaw cycles | – | recovery | 92.9 ± 3.87%
Cn1c(=O)oc2ccc(-c3ccc(CC(C#N)NC(=O)C4CNCCCO4)c(F)c3)cc21 (stereo not drawn) | – | rat | – | – | NOAEL | 60 mg/kg
Nc1ncnc(NCC2CCNCC2)c1-c1ccc(Oc2ccccc2)cc1 | – | male humans, faeces | oral, 75 mg, single metabolite | baseline: dose | metabolite excreted in faeces | 1.58 to 2.4%
CC12CC(c3ccc(S(C)(=O)=O)cc3)C3=C4CCC(=O)C=C4CCC3C1CCC2(O)C(F)(F)C(F)(F)F (stereo not drawn) | – | human, plasma | oral, 4 mg, geometric mean, added: itraconazole 200 mg/day | – | AUC0–3d | 740 ng·h/mL
COc1cc2c(cc1OC)CN(CCCCn1ccc3cc(OCC[18F])ccc31)C2 | – | ICR mice, male | intravenous, 120 min | – | brain/blood ratio | 0.85 ± 0.16
Cc1ccc(C(=O)N[C@@H](CO)CC(C)C)cc1C | LC-MS | human liver microsomes | 10 µM of parent drug, 60 min, pH 7.4, added: NADPH | baseline: parent drug at time zero | metabolite peak area | 1.8%
Cc1cc(O)cc(O)c1C(=O)c1c2c3c(c(O)cc(C)c3oc1=O)C(=O)c1c(O)cc(O)cc1-2 | – | KM mouse male, plasma | intraperitoneal, 15 mg/kg | – | lag time | 2.83 min
Cc1ccc(OCC(=O)O)cc1 | – | Sprague-Dawley rat, female, plasma | oral gavage, 100 mg/kg of parent drug | – | t1/2 | 2.85 h
C=C(c1ncc(C(=O)O)cn1)c1cc2c(cc1C)C(C)(C)CCC2(C)C | – | Sprague-Dawley rat, male | oral, 100 mg/kg, 2 h, sesame oil vehicle | – | blood triglycerides | 130 ± 50.8 mg/dL

Structure (SMILES) | assay | system | setting | how to read | endpoint | result
CC1(C)[C@@H](O)CC[C@]2(C)[C@H]3C(=O)C=C4[C@@H]5C[C@@](C)(C(=O)O)CC[C@]5(C)CC[C@@]4(C)[C@]3(C)CC[C@@H]12 | – | human, both sexes | oral, 12 capsules | – | renal clearance | 0.072 to 2.16 mL/day/kg
FC(F)(F)c1ccc2nc3c4cccnc4c4ncccc4c3nc2c1.[Cl-].[Cl-].[Ru+2].c1ccncc1.c1ccncc1.c1ccncc1.c1ccncc1 | – | red blood cells, rabbit | 20 µM, 2 h, 37 °C | – | hemolysis | 1.19 ± 0.01%
COc1cc(C)c(Cc2ccc(O)cc2)cc1[C@@H]1S[C@H](CO)[C@@H](O)[C@H](O)[C@H]1O | – | Japanese T2DM patients, plasma | 0.5 mg luseogliflozin, day 7, once daily | – | AUC(0-τ) | 22.8 ± 3.03 ng·h/mL
O=C(Nc1nccs1)C(c1cc(F)ccc1O)N1Cc2ccccc2C1=O (stereo not drawn) | – | mouse plasma | 1500 ng/mL, 5 h, room temperature, short-term stability, high QC | – | recovery | 102 ± 2.3%
OCc1cn(Cc2ccc(-c3noc(-c4ccc(OCC[18F])c(C(F)(F)F)c4)n3)cc2)nn1 | – | Lewis rat, female, bone | intravenous, 0.08333 h | – | tissue uptake | 0.55 ± 0.05 %ID/g
COC[C@@H](CC(C)C)NC(=O)c1ccc(C)c(CO)c1 | LC-MS | human liver microsomes | 10 µM of parent drug, 60 min, pH 7.4, added: NADPH | baseline: parent drug at time zero | metabolite peak area | 5.2%
CCC1CC2C(C)=CC3C(=O)CCCC3C=CC(C)=CC2C(=O)O1 (stereo not drawn) | – | ICR mouse (male), plasma | oral, 30 mg/kg, 120 min | – | plasma concentration | 2.4 ± 2.5 ng/mL
C=C1C(=O)O[C@@H]2C[C@H](C)[C@@H]3C[C@H](O)[C@H](O)[C@@]3(C)C[C@H]12 | propidium iodide flow cytometry | primary splenocytes, BALB/c mouse | 48 h, 10% fetal calf serum | – | CC50 | 7.8 ± 0.2 µg/mL (≈ 29.3 µM)
COC1C=COC2(C)Oc3c(C)c(O)c4c(c3C2=O)C2=NC3(CCN(CC(C)C)CC3)NC2=C(NC(=O)C(C)=CC=CC(C)C(O)C(C)C(O)C(C)C(OC(=O)Nc2cnccn2)C1C)C4=O (stereo not drawn) | – | female CD-1 mouse, plasma | oral, 10 mg/kg | – | bioavailability | 73.6%
Cc1cc(O)c2c(c1)C(=O)c1cc(O)cc(O)c1C2=O.Cc1cc(O)c2c(c1)C(=O)c1cc(O)cc(O)c1C2=O.Cc1nc(C)c(C)nc1C | powder dissolution | 900 mL medium | equivalent to 60 mg emodin, pH 7.0, 37 °C, 100 rpm | – | cumulative dissolution | ~370 µg
CC(NC(=O)OC1OC(C(=O)O)C(O)C(O)C1O)c1cc(Cl)ccc1Cn1c(=S)[nH]c(=O)c2[nH]ccc21 (stereo not drawn) | equilibrium dialysis | male Han Wistar rat plasma | 16 h, pH 7.4 | – | recovery | > 84%
CCCC[C@H](NC(=O)CNC(=O)CNC(=O)CN1CCN(CC(=O)O)CCN(CC(=O)O)CC1)C(=O)N[C@H]1CC(=O)NCCCC[C@@H](C(N)=O)NC(=O)[C@H](Cc2c[nH]c3ccccc23)NC(=O)[C@H](CCCNC(=N)N)NC(=O)[C@@H](Cc2ccccc2)NC(=O)[C@H](Cc2c[nH]cn2)NC1=O [gallium-67 labelled] | – | C57 mice, female, B16/F1 melanoma, urine | intravenous, 0.037 MBq, 24 h | – | urinary excretion | 94.57 ± 0.25%
O=C([O-])CN(CCN(CC(=O)[O-])CC(=O)[O-])CC(=O)[O-].[Co+2] | metal exchange with Zn2+, UV/Vis | – | 100 µM metal chelate, pH 7.4, 37 °C, added: 100 µM ZnCl2 | – | second-order rate constant | 8 ± 0.333 M⁻¹ s⁻¹
Oc1ccc(C(F)(F)F)cc1-c1nc2c(Br)cc(Br)cc2[nH]1 | – | defibrinated sheep blood | 400 µM | baseline: 1% Triton X-100 | hemolysis | < 50%
COc1cc2nc(N3CCCCC3)nc(NC3CCN(C)CC3)c2cc1OC | nephelometry | – | pH 2 | – | kinetic solubility | 50 to 100 µg/mL (≈ 130 to 259 µM)
Cc1[nH]nc2c1N=C(c1ccccc1Cl)c1cnc(N(CCO)CCO)cc1N2 | – | human male, plasma | oral, 10 mg, 0-120 h | baseline: metabolite AUC over parent AUC | metabolite to parent ratio | 0.07%
NCCCC[C@H](NC(=O)[C@@H]1CCCN1C(=O)[C@@H]1CSSC[C@H](NC(=O)CNC(=O)CNC(=O)CN)C(=O)N[C@@H](Cc2ccc(O)cc2)C(=O)N[C@@H](Cc2ccccc2)C(=O)N[C@@H](CCC(N)=O)C(=O)N[C@@H](CC(N)=O)C(=O)N1)C(=O)NCC(N)=O | – | Sprague Dawley rats | sc, 0.2 mg/kg, normalised to 0.1 mg/kg | – | dose-normalised AUC | 4.4 ng·h/mL
CCCC[C@H](NC(=O)CNC(=O)CNC(=O)CN1CCN(CC(=O)O)CCN(CC(=O)O)CCN(CC(=O)O)CC1)C(=O)N[C@H]1CC(=O)NCCCC[C@@H](C(N)=O)NC(=O)[C@H](Cc2c[nH]c3ccccc23)NC(=O)[C@H](CCCNC(=N)N)NC(=O)[C@@H](Cc2ccccc2)NC(=O)[C@H](Cc2c[nH]cn2)NC1=O [lead-203 labelled] | radio-HPLC | C57 mouse, urine | intravenous, 0.74 MBq, 2 h | – | intact fraction | ~65%
O=C(NCCCN(CCCCN(CCCNC(=O)c1cccc(=O)n1[O-])C(=O)c1cccc(=O)n1[O-])C(=O)c1cccc(=O)n1[O-])c1cccc(=O)n1[O-].[89Zr+4] | radio-TLC | PBS | 1 d, pH 7.4, 37 °C, added: Mg^2+ 10-fold excess | – | intact complex | 98.3 ± 2.5%
COc1cc(NC(C)=O)c2c(c1O)-c1c(OC)c(OC)cc3c1C(C2)N(C)CC3 (stereo not drawn) | – | rat brain homogenate | 50 µg/mL, 4 h, room temperature, short-term storage | – | remaining compound | 92.8 ± 2.4%
O=S(=O)(c1ccccc1)N1CCCCC1 | – | citrate buffer | 24 h, pH 4.5 | – | recovery | 85%

For quick reference, copied from above:
Structure (SMILES) | assay | system | setting | how to read | endpoint | result
CC(C)[C@H](NC(=O)CNC(=O)[C@H](CCC(N)=O)NC(=O)[C@H](C)N)C(=O)O | LC-MS/MS | human, plasma | intravenous, 10 mg/kg three times daily, day 2, first dose, 10 min infusion, geometric mean | – | AUC(0-last) | 241 ng·h/mL
O=C(O)C1OC(OC2C(COS(=O)(=O)O)OC(OC3C(C(=O)O)OC(OC4C(COS(=O)(=O)O)OC(OC5C(C(=O)O)OC(OC6C(COS(=O)(=O)O)OC(OC7C(C(=O)O)OC(OC8C(COS(=O)(=O)O)OC(OC9C(C(=O)O)OC(OC%10C(COS(=O)(=O)O)OC(OC%11C(C(=O)O)OC(Oc%12ccc([N+](=O)[O-])cc%12)C(O)C%11O)C(NS(=O)(=O)O)C%10O)C(OS(=O)(=O)O)C9O)C(NS(=O)(=O)O)C8O)C(OS(=O)(=O)O)C7O)C(NS(=O)(=O)O)C6O)C(OS(=O)(=O)O)C5O)C(NS(=O)(=O)O)C4O)C(OS(=O)(=O)O)C3O)C(NS(=O)(=O)O)C2OS(=O)(=O)O)C(O)C(O)C1OC1OC(COS(=O)(=O)O)C(O)C(O)C1NS(=O)(=O)O (stereo not drawn) | – | rats, serum | intravenous, 3600 µg/kg/day for 7 days, day 8 | – | creatinine | 0.42 ± 0.03 mg/dL
CC(C)(Sc1ccncc1-c1ccc(C#N)c2ccccc12)C(=O)OC1OC(C(=O)O)C(O)C(O)C1O (stereo not drawn) | – | human, urine | oral, 15 mg, 72 h, mild renal impairment | – | renal clearance | 163 mL/min
CN(O)C(=O)CCC(=O)NCCCN(CCCCN(CCCNC(=O)CCC(=O)N(C)O)C(=O)CCC(=O)N(C)O)C(=O)CCC(=O)N(C)O.[89Zr] | – | mouse, pancreas | 4 h | – | tracer uptake | 0.02 %ID/g
CC(=O)N([O-])CCCCCNC(=O)CCC(=O)N([O-])CCCCCNC(=O)CCC(=O)N([O-])CCCCCN.[89Zr+4] | radio-iTLC | aqueous buffer | initial, pH 5.0, 37 °C, EDTA challenge, added: 100-fold excess EDTA | – | intact complex | 97 ± 0.2%
OC1(C(F)(F)F)CCN(c2nc(Nc3ccnc(C(F)(F)F)c3)nc(-c3cccc(C(F)(F)F)n3)n2)C1 (stereo not drawn) | – | Sprague-Dawley rat | oral, at least 100 mg/kg, 28 days, once daily | – | food intake | decreased
